Measurements pooled from the literature.
Compare with care: the assays were run in different laboratories.
GLP1R: Glucagon-like peptide 1 receptor (GLP1R, Homo sapiens, UniProt P43220)
DCN1-like protein 1: DCN1-like protein 1 (Homo sapiens, UniProt Q96GG9)
Chain of UniProt Q96GG9 (whole entry, looked up): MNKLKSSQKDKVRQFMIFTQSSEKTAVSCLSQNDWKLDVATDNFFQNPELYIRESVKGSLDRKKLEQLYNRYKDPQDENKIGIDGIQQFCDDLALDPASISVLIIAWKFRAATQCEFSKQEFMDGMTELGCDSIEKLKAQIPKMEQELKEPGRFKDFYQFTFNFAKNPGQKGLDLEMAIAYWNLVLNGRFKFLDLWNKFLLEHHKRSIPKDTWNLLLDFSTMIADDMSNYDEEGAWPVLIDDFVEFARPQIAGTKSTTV
Chain of UniProt P30291 (whole entry, looked up): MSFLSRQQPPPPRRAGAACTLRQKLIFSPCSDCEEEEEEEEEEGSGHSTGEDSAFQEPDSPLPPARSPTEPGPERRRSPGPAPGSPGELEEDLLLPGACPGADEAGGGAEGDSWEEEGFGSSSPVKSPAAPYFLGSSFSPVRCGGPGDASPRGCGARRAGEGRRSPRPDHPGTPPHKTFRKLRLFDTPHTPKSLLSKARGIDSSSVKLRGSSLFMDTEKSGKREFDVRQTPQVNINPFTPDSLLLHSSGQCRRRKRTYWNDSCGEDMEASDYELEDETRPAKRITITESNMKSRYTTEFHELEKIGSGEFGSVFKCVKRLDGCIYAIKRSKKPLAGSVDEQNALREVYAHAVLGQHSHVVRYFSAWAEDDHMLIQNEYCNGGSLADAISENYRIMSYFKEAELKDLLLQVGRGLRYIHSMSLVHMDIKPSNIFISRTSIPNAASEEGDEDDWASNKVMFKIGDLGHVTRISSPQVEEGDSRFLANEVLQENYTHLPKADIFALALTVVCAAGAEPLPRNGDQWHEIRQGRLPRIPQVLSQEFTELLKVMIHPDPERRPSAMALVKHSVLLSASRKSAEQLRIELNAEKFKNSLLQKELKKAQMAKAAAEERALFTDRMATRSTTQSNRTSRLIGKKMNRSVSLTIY
Chain of UniProt Q14680 (whole entry, looked up): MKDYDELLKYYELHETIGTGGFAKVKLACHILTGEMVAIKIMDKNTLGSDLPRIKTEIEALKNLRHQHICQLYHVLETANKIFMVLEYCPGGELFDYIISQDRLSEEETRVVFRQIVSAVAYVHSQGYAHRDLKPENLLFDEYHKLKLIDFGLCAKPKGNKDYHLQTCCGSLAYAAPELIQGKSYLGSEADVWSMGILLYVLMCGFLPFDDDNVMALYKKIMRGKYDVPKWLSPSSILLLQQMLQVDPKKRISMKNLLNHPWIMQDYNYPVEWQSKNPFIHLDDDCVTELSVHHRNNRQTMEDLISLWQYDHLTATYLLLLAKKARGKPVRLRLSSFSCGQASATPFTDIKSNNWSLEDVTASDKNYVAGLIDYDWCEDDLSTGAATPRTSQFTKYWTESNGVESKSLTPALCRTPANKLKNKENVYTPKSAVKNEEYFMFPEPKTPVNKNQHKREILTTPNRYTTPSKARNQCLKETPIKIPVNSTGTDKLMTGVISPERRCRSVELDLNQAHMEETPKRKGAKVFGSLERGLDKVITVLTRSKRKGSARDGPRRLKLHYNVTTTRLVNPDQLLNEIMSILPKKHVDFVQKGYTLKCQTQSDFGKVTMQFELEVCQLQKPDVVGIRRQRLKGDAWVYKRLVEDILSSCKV
Chain of UniProt Q4J6C6 (whole entry, looked up): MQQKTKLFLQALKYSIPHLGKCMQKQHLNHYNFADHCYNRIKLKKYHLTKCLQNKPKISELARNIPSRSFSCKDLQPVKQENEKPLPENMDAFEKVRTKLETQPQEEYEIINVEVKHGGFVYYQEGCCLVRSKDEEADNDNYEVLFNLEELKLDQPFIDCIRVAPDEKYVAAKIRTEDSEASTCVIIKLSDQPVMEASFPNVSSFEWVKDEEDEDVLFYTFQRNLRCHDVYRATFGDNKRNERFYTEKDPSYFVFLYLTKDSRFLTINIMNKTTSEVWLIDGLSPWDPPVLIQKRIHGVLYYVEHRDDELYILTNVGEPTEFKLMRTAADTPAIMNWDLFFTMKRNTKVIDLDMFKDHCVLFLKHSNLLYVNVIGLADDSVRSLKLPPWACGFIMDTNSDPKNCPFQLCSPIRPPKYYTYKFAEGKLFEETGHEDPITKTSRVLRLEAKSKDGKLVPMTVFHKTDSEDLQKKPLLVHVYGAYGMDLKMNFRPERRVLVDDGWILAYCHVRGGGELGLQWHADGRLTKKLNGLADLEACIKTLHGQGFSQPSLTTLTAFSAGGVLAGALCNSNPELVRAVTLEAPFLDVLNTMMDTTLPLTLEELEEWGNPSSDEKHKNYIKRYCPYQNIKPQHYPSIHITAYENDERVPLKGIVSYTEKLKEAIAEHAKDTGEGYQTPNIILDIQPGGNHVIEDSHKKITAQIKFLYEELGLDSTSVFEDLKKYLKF
Chain of UniProt P05164 (whole entry, looked up): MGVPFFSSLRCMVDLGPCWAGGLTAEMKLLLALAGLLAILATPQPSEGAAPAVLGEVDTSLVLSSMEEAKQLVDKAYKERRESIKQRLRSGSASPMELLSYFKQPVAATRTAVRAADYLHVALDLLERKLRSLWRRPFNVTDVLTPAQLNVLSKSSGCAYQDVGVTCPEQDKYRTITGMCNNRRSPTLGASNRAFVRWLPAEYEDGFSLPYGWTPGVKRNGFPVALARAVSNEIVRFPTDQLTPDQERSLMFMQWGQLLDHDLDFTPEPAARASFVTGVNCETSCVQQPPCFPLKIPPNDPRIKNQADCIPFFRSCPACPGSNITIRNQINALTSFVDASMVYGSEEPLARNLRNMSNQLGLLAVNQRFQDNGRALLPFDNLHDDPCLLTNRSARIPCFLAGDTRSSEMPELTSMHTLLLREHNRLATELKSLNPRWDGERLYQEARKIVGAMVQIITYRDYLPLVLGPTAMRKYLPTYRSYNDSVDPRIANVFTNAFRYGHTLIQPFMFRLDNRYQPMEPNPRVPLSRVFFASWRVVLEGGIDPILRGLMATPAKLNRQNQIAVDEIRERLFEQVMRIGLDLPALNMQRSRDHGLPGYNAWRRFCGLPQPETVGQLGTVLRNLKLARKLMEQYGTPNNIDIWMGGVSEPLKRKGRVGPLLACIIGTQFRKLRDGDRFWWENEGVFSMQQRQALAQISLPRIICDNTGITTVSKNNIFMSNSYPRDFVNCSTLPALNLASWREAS
Chain of UniProt P47901 (whole entry, looked up): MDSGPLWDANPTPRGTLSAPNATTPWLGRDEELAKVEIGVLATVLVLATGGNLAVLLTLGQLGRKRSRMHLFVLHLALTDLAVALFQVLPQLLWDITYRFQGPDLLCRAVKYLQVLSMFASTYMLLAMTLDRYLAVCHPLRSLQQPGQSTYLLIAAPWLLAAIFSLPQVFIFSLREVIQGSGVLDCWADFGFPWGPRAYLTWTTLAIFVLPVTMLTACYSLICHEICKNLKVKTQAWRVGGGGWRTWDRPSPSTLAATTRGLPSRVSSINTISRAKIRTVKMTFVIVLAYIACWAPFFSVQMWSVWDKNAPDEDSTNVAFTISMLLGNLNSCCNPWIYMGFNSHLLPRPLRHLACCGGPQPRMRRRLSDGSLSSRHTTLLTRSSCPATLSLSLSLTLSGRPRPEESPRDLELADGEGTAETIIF

O=C(c1ccc(Cl)cc1)N1CCN2C(=O)N(OC(=O)N3CCOc4ccccc43)C(=O)C2C1 (stereo not shown)
mean protein ratio (PREPL (Homo sapiens, UniProt Q4J6C6); MS-based ABPP; SW-620 conditioned medium; 10 µM, 1 h, 37 °C; baseline: compound over DMSO, lower = more inhibition): 1.11

CC[C@H](C)[C@H](NC(=O)[C@H](Cc1ccccc1)NC(=O)[C@H](CCC(=O)O)NC(=O)[C@H](CCCNC(=N)N)NC(=O)[C@H](C)NC(=O)[C@H](C)NC(=O)[C@H](CCC(N)=O)NC(=O)[C@H](CCC(=O)O)NC(=O)[C@H](CCC(=O)O)NC(=O)[C@H](CC(C)C)NC(=O)[C@H](Cc1ccc(O)cc1)NC(=O)[C@H](CO)NC(=O)[C@H](CO)NC(=O)[C@@H](NC(=O)[C@H](CC(=O)O)NC(=O)[C@H](CO)NC(=O)[C@@H](NC(=O)[C@H](Cc1ccccc1)NC(=O)[C@@H](NC(=O)CNC(=O)[C@H](CCC(=O)O)NC(=O)[C@H](C)NC(=O)CCc1cnc[nH]1)[C@@H](C)O)[C@@H](C)O)C(C)C)C(=O)N[C@@H](C)C(=O)N[C@@H](Cc1c[nH]c2ccccc12)C(=O)N[C@@H](CC(C)C)C(=O)N[C@H](C(=O)N[C@@H](CCCCNc1c(NCCCCCN(O)C(=O)CCC(=O)NCCCCCN(O)C(=O)CCC(=O)NCCCCCN(O)C(C)=O)c(=O)c1=O)C(=O)NCC(=O)N[C@@H](CCCNC(=N)N)C(=O)N[C@@H](CCCCNc1c(NCCCCCN(O)C(=O)CCC(=O)NCCCCCN(O)C(=O)CCC(=O)NCCCCCN(O)C(C)=O)c(=O)c1=O)C(=O)NCC(=O)NCC(=O)N[C@@H](CO)C(=O)N[C@@H](CCCCNC(=O)COCCOCCNC(=O)COCCOCCNC(=O)CC[C@H](NC(=O)CCCCCCCCCCCCCCCCC(=O)O)C(=O)O)C(=O)O)C(C)C
EC50 (GLP1R; cAMP reporter gene, agonist, CRE luciferase; BHK; without Zr, 0% HSA): 0.016 nM

Cc1cc(N)c2cc(NC(=O)Nc3ccc4nc(C)cc(N)c4c3)ccc2n1
IC50 (Genome polyprotein, NS5 methyltransferase domain (pol, Dengue virus type 3, UniProt Q6YMS4)): 5.4 µM

CC[C@H](C)[C@H](NC(=O)[C@H](Cc1ccccc1)NC(=O)[C@H](CCC(=O)O)NC(=O)[C@H](CCCNC(=N)N)NC(=O)[C@H](C)NC(=O)[C@H](C)NC(=O)[C@H](CCC(N)=O)NC(=O)[C@H](CCC(=O)O)NC(=O)[C@H](CCC(=O)O)NC(=O)[C@H](CC(C)C)NC(=O)[C@H](Cc1ccc(O)cc1)NC(=O)[C@H](CO)NC(=O)[C@H](CO)NC(=O)[C@@H](NC(=O)[C@H](CC(=O)O)NC(=O)[C@H](CO)NC(=O)[C@@H](NC(=O)[C@H](Cc1ccccc1)NC(=O)[C@@H](NC(=O)CNC(=O)[C@H](CCC(=O)O)NC(=O)[C@H](C)NC(=O)CCc1c[nH]cn1)[C@@H](C)O)[C@@H](C)O)C(C)C)C(=O)N[C@@H](C)C(=O)N[C@@H](Cc1c[nH]c2ccccc12)C(=O)N[C@@H](CC(C)C)C(=O)N[C@H](C(=O)N[C@@H](CCCNC(=N)N)C(=O)NCC(=O)N[C@@H](CCCNC(=N)N)C(=O)N[C@@H](CCCCNC(=O)COCCOCCNC(=O)COCCOCCNC(=O)CC[C@H](NC(=O)CCCCCCCCCCCCCCCCC(=O)O)C(=O)O)C(=O)NCC(=O)NCC(=O)N[C@@H](CO)C(=O)N[C@@H](CCCCNc1c(NCCCCCN(O)C(=O)CCC(=O)NCCCCCN(O)C(=O)CCC(=O)NCCCCCN(O)C(C)=O)c(=O)c1=O)C(=O)O)C(C)C [zirconium-89 labelled]
tissue uptake (rat, bone marrow; iv, 3 nmol/kg, 168 h, ex vivo): 1.24 %ID/g

CC[C@H](C)[C@H](NC(=O)[C@H](Cc1ccccc1)NC(=O)[C@H](CCC(=O)O)NC(=O)[C@H](CCCNC(=N)N)NC(=O)[C@H](C)NC(=O)[C@H](C)NC(=O)[C@H](CCC(N)=O)NC(=O)[C@H](CCC(=O)O)NC(=O)[C@H](CCC(=O)O)NC(=O)[C@H](CC(C)C)NC(=O)[C@H](Cc1ccc(O)cc1)NC(=O)[C@H](CO)NC(=O)[C@H](CO)NC(=O)[C@@H](NC(=O)[C@H](CC(=O)O)NC(=O)[C@H](CO)NC(=O)[C@@H](NC(=O)[C@H](Cc1ccccc1)NC(=O)[C@@H](NC(=O)CNC(=O)[C@H](CCC(=O)O)NC(=O)[C@H](C)NC(=O)CCc1cnc[nH]1)[C@@H](C)O)[C@@H](C)O)C(C)C)C(=O)N[C@@H](C)C(=O)N[C@@H](Cc1c[nH]c2ccccc12)C(=O)N[C@@H](CC(C)C)C(=O)N[C@H](C(=O)N[C@@H](CCCNC(=N)N)C(=O)NCC(=O)N[C@@H](CCCNC(=N)N)C(=O)N[C@@H](CCCCNC(=O)COCCOCCNC(=O)COCCOCCNC(=O)CC[C@H](NC(=O)CCCCCCCCCCCCCCCCC(=O)O)C(=O)O)C(=O)NCC(=O)NCC(=O)N[C@@H](CO)C(=O)N[C@@H](CCCCNc1c(NCCCCCN(O)C(=O)CCC(=O)NCCCCCN(O)C(=O)CCC(=O)NCCCCCN(O)C(C)=O)c(=O)c1=O)C(=O)N[C@@H](CCCCNc1c(NCCCCCN(O)C(=O)CCC(=O)NCCCCCN(O)C(=O)CCC(=O)NCCCCCN(O)C(C)=O)c(=O)c1=O)C(=O)O)C(C)C
EC50 (GLP1R; cAMP reporter gene, agonist, CRE luciferase; BHK; without Zr, 1% HSA): 0.17 nM

Cc1nn(-c2ccccc2)c2c1[C@H](c1cccs1)[C@H](NC(=O)c1cccc(C(F)(F)F)c1)C(=O)N2
IC50 (DCN1-like protein 1): > 15 µM

C[C@H]1CN(c2n[nH]c3nc(N[C@H]4CC[C@H](NS(=O)(=O)CCC(F)(F)F)CC4)ncc23)CCO1
IC50 (Paxillin (PXN, Homo sapiens, UniProt P49023); biochemical): ≥ 20 µM

Cc1csc([C@H]2c3c(C)nn(-c4ccccc4)c3NC(=O)[C@H]2NC(=O)c2cccc(C(F)(F)F)c2)c1
IC50 (DCN1-like protein 1): > 15 µM

COc1ccc(N2C(=O)N(c3c(C)cccc3Cl)Cc3cnc(Nc4ccc(C5CCN(C)CC5)cc4OC)nc32)nc1
inhibition (WEE1 (Homo sapiens, UniProt P30291); kinase activity; 0.5 µM): 25%

CN1CCN(c2cc(-c3ccncc3)c(-c3ccc4ccccc4c3)nn2)CC1
activation (AVPR1B (Homo sapiens, UniProt P47901); agonist, FLIPR; 12.5 µM): 0.3%

COc1cc(Nc2ncc(F)c(Nc3ccc4c(n3)NC(=O)C(C)(C)O4)n2)cc(OC)c1OC
IC50 (Myeloperoxidase (MPO, Homo sapiens, UniProt P05164)): > 10 µM

CC[C@H](CO)Nc1nc(NCc2ccc(-c3ccccn3)cc2)c2ncn(C(C)C)c2n1
Kd (MELK (Homo sapiens, UniProt Q14680); binding, competition affinity chromatography; SH-SY5Y cell extract): 27.7 µM

CC[C@H](C)[C@H](NC(=O)[C@H](Cc1ccccc1)NC(=O)[C@H](CCC(=O)O)NC(=O)[C@H](CCCNC(=N)N)NC(=O)[C@H](C)NC(=O)[C@H](C)NC(=O)[C@H](CCC(N)=O)NC(=O)[C@H](CCC(=O)O)NC(=O)[C@H](CCC(=O)O)NC(=O)[C@H](CC(C)C)NC(=O)[C@H](Cc1ccc(O)cc1)NC(=O)[C@H](CO)NC(=O)[C@H](CO)NC(=O)[C@@H](NC(=O)[C@H](CC(=O)O)NC(=O)[C@H](CO)NC(=O)[C@@H](NC(=O)[C@H](Cc1ccccc1)NC(=O)[C@@H](NC(=O)CNC(=O)[C@H](CCC(=O)O)NC(=O)[C@H](C)NC(=O)CCc1cnc[nH]1)[C@@H](C)O)[C@@H](C)O)C(C)C)C(=O)N[C@@H](C)C(=O)N[C@@H](Cc1c[nH]c2ccccc12)C(=O)N[C@@H](CC(C)C)C(=O)N[C@H](C(=O)N[C@@H](CCCCNC(=O)COCCOCCNC(=O)COCCOCCNC(=O)CC[C@H](NC(=O)CCCCCCCCCCCCCCCCC(=O)O)C(=O)O)C(=O)NCC(=O)N[C@@H](CCCNC(=N)N)C(=O)N[C@@H](CCCCNc1c(NCCCCCN(O)C(=O)CCC(=O)NCCCCCN(O)C(=O)CCC(=O)NCCCCCN(O)C(C)=O)c(=O)c1=O)C(=O)NCC(=O)NCC(=O)N[C@@H](CO)C(=O)N[C@@H](CCCCNc1c(NCCCCCN(O)C(=O)CCC(=O)NCCCCCN(O)C(=O)CCC(=O)NCCCCCN(O)C(C)=O)c(=O)c1=O)C(=O)NCC(=O)NCC(=O)N[C@@H](CO)C(=O)N[C@@H](CCCCNc1c(NCCCCCN(O)C(=O)CCC(=O)NCCCCCN(O)C(=O)CCC(=O)NCCCCCN(O)C(C)=O)c(=O)c1=O)C(=O)O)C(C)C
EC50 (GLP1R; cAMP reporter gene, agonist, CRE luciferase; BHK; without Zr, 0% HSA): 0.014 nM
